Published values from different studies.
Each numbered part is a random draw from the data of one study; scales do not carry over between parts.

Set 1 — technique: universal PBM; form: double-stranded DNA, one strand shown; medium: in vitro; tested at: not given; direction: higher = stronger binding
Target: Sal-like protein 4, full length isoform B (SALL4, Homo sapiens, UniProt Q9UJQ4-2, residues 1-616)
Notes: 8-mer, flanks averaged, mean of replicates
Oligonucleotide	E-score
AGTAATAG	0.255
AAGGGTCC	-0.297
CCTGGGAA	-0.217
AACTCCAT	0.121
AAATTGAA	0.299
AACGTTAA	0.161
CCATCGAA	-0.0332
TACGCGAA	0.0349
ATTCATTG	0.143

Set 2 — technique: protein binding microarray; form: double-stranded DNA, one strand shown; medium: in vitro; tested at: not given; baseline: not given; direction: higher = stronger binding
Target: Histone acetyltransferase KAT6A, winged helix 2, GST fusion (KAT6A, Homo sapiens, UniProt Q92794, residues 85-181)
Notes: 8-mer, flanks averaged, mean of 2 arrays, mostly near background
Construct (chain): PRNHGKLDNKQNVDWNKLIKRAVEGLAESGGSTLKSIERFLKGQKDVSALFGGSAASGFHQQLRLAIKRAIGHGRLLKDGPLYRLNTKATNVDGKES
Oligonucleotide	E-score
AAACAACA	0.0738
GTCCGGAC	0.189
ACCCTCCG	0.0651
CAGACCTG	-0.186
GAAAACCC	-0.0408
CTGCGGGA	0.118
CGCGGTTC	0.175
AGTGTTTG	-0.0272
ATTATAGA	0.00166

Set 3 — technique: protein-binding microarray; form: double-stranded DNA, one strand shown; medium: in vitro; tested at: not given; direction: higher = stronger binding
Target: Transcription factor Sp1 (SP1, Homo sapiens, UniProt P08047, residues 1-785, full length assumed)
Chain of UniProt P08047 (whole entry, looked up): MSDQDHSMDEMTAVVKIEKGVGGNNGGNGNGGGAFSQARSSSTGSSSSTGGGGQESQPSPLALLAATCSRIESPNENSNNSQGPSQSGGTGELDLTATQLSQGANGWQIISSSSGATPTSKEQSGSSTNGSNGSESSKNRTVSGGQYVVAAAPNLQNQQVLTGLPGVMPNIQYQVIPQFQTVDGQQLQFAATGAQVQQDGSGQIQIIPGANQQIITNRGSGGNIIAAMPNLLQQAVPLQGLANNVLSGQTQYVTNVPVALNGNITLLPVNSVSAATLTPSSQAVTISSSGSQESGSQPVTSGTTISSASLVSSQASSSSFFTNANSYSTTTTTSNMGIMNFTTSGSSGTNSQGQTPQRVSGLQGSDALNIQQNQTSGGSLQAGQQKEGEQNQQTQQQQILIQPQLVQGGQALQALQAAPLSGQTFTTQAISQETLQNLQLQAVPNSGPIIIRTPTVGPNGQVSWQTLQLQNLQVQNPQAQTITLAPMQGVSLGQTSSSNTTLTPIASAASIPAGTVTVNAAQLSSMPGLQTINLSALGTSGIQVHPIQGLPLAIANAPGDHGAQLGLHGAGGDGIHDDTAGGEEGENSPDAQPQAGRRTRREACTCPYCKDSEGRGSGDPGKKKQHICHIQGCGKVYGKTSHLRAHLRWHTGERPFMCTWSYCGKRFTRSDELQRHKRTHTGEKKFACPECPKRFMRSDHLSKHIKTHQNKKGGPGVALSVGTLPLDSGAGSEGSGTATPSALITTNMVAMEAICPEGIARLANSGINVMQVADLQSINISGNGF
Notes: k-mer, scored over probes, only values ≥0.25
Oligonucleotide	E-score
GGGGATAA	0.315
CTGCCCCC	0.251
ACCCACCA	0.285
AAGGATAT	0.259
CCGCCCCA	0.487

Single results of other studies
Substance	target	assay	test system	conditions	how to read	endpoint	result
PhoQ, residues 284 288 289 292 302 303 NLSRDF	PhoP, residues 12 14 15 18 19 SEGLL (Escherichia coli, UniProt P23836)	Sort-seq, measured: YFP reporter	E. coli	PhoQ-PhoP variant library, with: 10 µM Mg2+	baseline: high Mg2+ state, higher = stronger signaling	fold induction	10.7

Repeated from above (set 2):
Oligonucleotide	E-score
GTCCGGAC	0.189
ACCCTCCG	0.0651
